Results of several laboratories.
A part holds a random share of what one study measured. Positions count from the first letter of the parent shown.

Block 1 — target: CCNA2, cyclin fold, Cln2 fusion (human); technique: yeast growth competition, sequencing; matrix: yeast; notes: strong parent motif; baseline: not given; direction: higher = stronger binding; measurement: normalised enrichment score
Parent: ORC1 docking peptide (human); PRARKRLELGNLG
PRASKRLELGNLG [R4S]: 1.11
PRARKRLQLGNLG [E8Q]: 4.84
PRARKYLELGNLG [R6Y]: 1.95
PRAGKRLELGNLG [R4G]: 1.31
PRARKRLELGNRG [L12R]: 4.06
PKARKRLELGNLG [R2K]: 5.49
PRARKRLELGTLG [N11T]: 5.37
PRQRKRLELGNLG [A3Q]: 2.3
PRARKRLRLGNLG [E8R]: 3.37
PRARKRLEEGNLG [L9E]: 0.651
PRARKCLELGNLG [R6C]: 3.05
PRARKRLELGNLE [G13E]: 5.62
PIARKRLELGNLG [R2I]: 4.32
PRARKRLELANLG [G10A]: 4.36
PRERKRLELGNLG [A3E]: 0.98
PRAWKRLELGNLG [R4W]: 1.56
PRARKRLECGNLG [L9C]: 1.13
PRTRKRLELGNLG [A3T]: 1.27
PRDRKRLELGNLG [A3D]: 0.152
PRARKRLELGALG [N11A]: 4.77
PRARKHLELGNLG [R6H]: 2.19
PRKRKRLELGNLG [A3K]: 0.834
PRARKRLELGRLG [N11R]: 4.37
PPARKRLELGNLG [R2P]: 4.81
PRARDRLELGNLG [K5D]: 0.399

Block 2 — technique: RNA Bind-n-Seq; form: RNA; matrix: in vitro; concentration: 365 nM; baseline: no-protein control; direction: higher = stronger binding; measurement: RBNS enrichment (R)
Target: RNA binding protein fox-1 homolog 2, RRM domain, GST-SBP tag (RBFOX2, Homo sapiens, UniProt O43251-10, residues 100-194)
Notes: natural RNA segment, single round, ends assumed
Target sequence (chain): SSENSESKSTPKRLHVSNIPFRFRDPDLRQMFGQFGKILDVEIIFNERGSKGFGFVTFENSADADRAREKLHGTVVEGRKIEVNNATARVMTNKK
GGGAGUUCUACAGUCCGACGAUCUGAGAACAGAGGUCAGACACAGCUGCGUAACAUCCAUCCUGCUACAACUCUUCCACCCCAAACAAAAGGGCUCAGGCUACACACGACCAUGAUUUAUGUUUUCAGGGGAUUGGAAUUCUCGGGUGCCAA: 0.446
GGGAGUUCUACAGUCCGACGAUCUGGCAUUUCCUUCAUAGAUAGACCUGGCCUGUCACCAGGAGUCCUACACUUCUGAAGUAUGAGCAAAGCUUAAGGUGAGUCUUGUGAUAUCUCUUUCACUUCCUCCCCAGUGGAAUUCUCGGGUGCCAA: 0.299
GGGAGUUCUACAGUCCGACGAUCCAUCAUCUCUUGCUGUGGAAACGGAAACAUAGCAGUUUUCACAUUUCCUGCAUCUCUCAGACAGGACUCACCAUCUCUGCCUCCCAUGAGGCUUACAGAGUUCAAUGUUGUGGAAUUCUCGGGUGCCAA: 0.254
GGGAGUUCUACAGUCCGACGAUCGAAUUGCCACAGGACACUAUGGCCUUGCUGGGCUAGCAUUUGCUGCUGUAAUCUAGUUGCUCUGGUAUAGAAGAGAACCCCAUGGGGCUGUGGGAGAGACAAUUCAGUGGUGGAAUUCUCGGGUGCCAA: 1.06
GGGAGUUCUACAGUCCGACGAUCGUGCAGAGUUUUACAGACACCCGGUCAGCCCGGCUGGAGCCCGCCCUCCCCUCCCCUAGCAGCCAGGUCACUGCCUGUGGCUGCAGCCGUGGCCCGUGGUGCAGCCGUGGUGGAAUUCUCGGGUGCCAA: 0.428
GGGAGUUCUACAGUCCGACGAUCCACUGGGACCCUUGAGCCAAGGGCAGUCCCUACCAGGUGCCCAAGCCGCAAGUCUCAGGGGGCUUUUGUCUGAGGACCUUCUUGGGGCCAGUCUCUGAGGACGCUGCCACUGGAAUUCUCGGGUGCCAA: 0.209
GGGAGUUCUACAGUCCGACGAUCAUUAUUUCUCACAACUAGUUCUCUACGAGAGAUUUUGUUUCUACAAUGUAGUCAGCACUUAAUGGAGAGUAUGGAGUAGUGCAUUUUGCAGGGAUUUUUAUUCCGUCUUUUGGAAUUCUCGGGUGCCAA: 0.464
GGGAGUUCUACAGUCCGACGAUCAAAAGGGCUGGCUGCUCUGACAUGGUGGGGCGUCUCCUGGGGCCUGGCUCGCUCUGGACCCUGCUCUCCCCAGCCACGUUCUGUAGUCUGUUGUACAUCUCAGGAACCCUUGGAAUUCUCGGGUGCCAA: 0.169
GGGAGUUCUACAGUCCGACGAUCUUUGAUUCAGUAUUAACAGAUCUUGACUACACUAAUUCUUUAUAUUAUAGAACCAACGGAAAUAUGGGCACUAUUUUGAAUUCUAGAGAUGGUUUUUGUUAAAUCUACUAUGGAAUUCUCGGGUGCCAA: 0.429
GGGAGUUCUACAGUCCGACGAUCCCCUUCAAUUCCUCAAGUCUGGGUGGUGACAAGGUAGGGGCUAGGUACUGGACUACCACAGGUUUUUAGGAACUAAGGUGUUUCUCAUAAACACAAAAUGUUGGGUGAAAUGGAAUUCUCGGGUGCCAA: 0.739
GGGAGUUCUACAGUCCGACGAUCUCAGAUGAGGACCUCUUGGAAUAGCUCUUCAGAGGAGCUGGACCCAGCAUGGAUGGUGGAACCACAGUACCUCUUACACUCCCUGUGGCUCCAACUUCAGGAAAUAAAUUUGGAAUUCUCGGGUGCCAA: 2.23
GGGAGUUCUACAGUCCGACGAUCAUCCUGGAGUUUUGUUAUCAGCAGCUUUGCAGUUUGGGAAACAAAGAAACCAAAGCUGAGUGUUUUAAAGAAUGAACAUAUCUGGAAAUCCUUGCUCUCAAAACAAAACAUGGAAUUCUCGGGUGCCAA: 0.443

Block 3 — technique: protein-binding microarray; form: double-stranded DNA, one strand shown; matrix: in vitro; concentration: not given; direction: higher = stronger binding; measurement: E-score
Target: Protein C-ets-1 (ETS1, Homo sapiens, UniProt P14921, residues 1-441, K379A, full length assumed)
Sequence of UniProt P14921 (whole entry, unmodified, looked up): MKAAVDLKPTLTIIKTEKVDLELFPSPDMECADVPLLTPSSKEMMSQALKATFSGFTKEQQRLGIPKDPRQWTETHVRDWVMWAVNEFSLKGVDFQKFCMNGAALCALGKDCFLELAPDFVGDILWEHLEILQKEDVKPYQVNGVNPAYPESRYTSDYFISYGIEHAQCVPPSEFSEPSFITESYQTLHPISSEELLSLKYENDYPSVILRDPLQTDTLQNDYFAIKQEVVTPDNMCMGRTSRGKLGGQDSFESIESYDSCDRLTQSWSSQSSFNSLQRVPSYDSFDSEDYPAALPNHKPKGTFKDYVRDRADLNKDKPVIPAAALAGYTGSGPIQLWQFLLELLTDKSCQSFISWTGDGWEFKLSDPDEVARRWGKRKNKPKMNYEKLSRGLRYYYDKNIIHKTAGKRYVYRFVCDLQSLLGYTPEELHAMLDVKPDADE
Notes: k-mer, scored over probes, only values ≥0.25
ATTGCCGG: 0.31
TATATAAA: 0.264
TCCCGGCA: 0.274
AATATCCG: 0.264
AACAATAC: 0.259
TAACGGTA: 0.264
CGTCGGCC: 0.306
GTTCGTCA: 0.308
ATGTAACA: 0.294
CCGTACGA: 0.265
CCCGGTAG: 0.342
AACGACAC: 0.293
GCGACAAC: 0.263
AACCGGTT: 0.459
AATACATG: 0.313
GGTAAAGA: 0.251
AGTTACCG: 0.285
ATACCGGC: 0.394
ATGACAAC: 0.253
CCCGCCGG: 0.389

Block 4 — technique: protein binding microarray; form: double-stranded DNA, one strand shown; matrix: in vitro; concentration: not given; baseline: not given; direction: higher = stronger binding; measurement: E-score
Target: Histone acetyltransferase KAT6A, winged helix 2, GST fusion (KAT6A, Homo sapiens, UniProt Q92794, residues 85-181)
Notes: 8-mer, flanks averaged, mean of 2 arrays, mostly near background
Residues (chain): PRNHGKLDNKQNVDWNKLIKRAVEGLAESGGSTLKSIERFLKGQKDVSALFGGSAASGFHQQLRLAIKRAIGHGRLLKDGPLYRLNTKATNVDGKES
AAACCTAT: 0.0541
GTAAAGTA: -0.206
ACGGATGC: 0.0506
ATAGATAG: -0.168
CAATTTTA: -0.0475
GGCTTGTA: -0.107
ACCCCTAC: -0.327
CATTCAGC: -0.147
ACTAAAAT: 0.0866
AGAAGACT: -0.265
AACAGTGT: -0.168
GAGCTTGC: 0.016
ACTCTCCG: 0.159
GTTAGCGA: 0.0339
GTCCGGAA: 0.0271
GCACTCGA: 0.0575
GCCTAAAC: 0.119
ACCCTAGT: -0.106
GAAAGTTC: -0.0736
GATATACA: -0.158
CTCCCCCA: -0.129
GACGCCAC: -0.0362
ATCACGAA: 0.0406
CGACGCCA: 0.0249

Block 5 — technique: protein-binding microarray; form: double-stranded DNA, one strand shown; matrix: in vitro; concentration: 250 nM; notes: 60-bp whole probe; added: salmon DNA 0.4 mg/ml; baseline: random background probes; direction: higher = stronger binding; measurement: log fluorescence; shared flanks, not repeated: GCCTAGCAC … GTCTTGATTCGCTTGACGCTGCTG
Target: Interferon regulatory factor 7, full length, phosphomimetic (IRF7, Homo sapiens, UniProt Q92985, residues 1-503, S101K/S471D/S472D/S475D/S476D/S477D/S483D/S484D/S487D)
Residues (chain): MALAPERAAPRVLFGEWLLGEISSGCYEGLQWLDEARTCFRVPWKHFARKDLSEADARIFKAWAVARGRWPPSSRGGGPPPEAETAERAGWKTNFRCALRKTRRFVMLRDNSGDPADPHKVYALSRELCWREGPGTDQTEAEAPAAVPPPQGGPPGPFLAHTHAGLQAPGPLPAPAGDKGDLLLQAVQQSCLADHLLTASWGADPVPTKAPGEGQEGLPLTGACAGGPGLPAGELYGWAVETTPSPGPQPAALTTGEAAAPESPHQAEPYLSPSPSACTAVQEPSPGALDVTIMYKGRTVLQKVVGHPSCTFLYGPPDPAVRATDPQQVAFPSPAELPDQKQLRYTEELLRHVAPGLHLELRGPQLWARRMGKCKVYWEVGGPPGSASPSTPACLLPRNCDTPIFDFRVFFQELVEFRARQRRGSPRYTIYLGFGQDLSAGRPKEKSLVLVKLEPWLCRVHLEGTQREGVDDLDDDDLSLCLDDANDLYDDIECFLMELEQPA
TCAGGTCTTCACTTGGCACTGTGCTAG: -0.0245 z-score
TCCTCTGTCATTTTCTCTTAGTGCTAG: 0.777 z-score
TTAGATTTCAGGATCGATTAGTGCTAG: 0.766 z-score
TTAGGTATTGACACTGGGTTAGTGCTA: -0.657 z-score
GACGATATAAGTATCGAGACGTGCTAG: -0.134 z-score
CCACACACCATTCTCGGGACGTGCTAG: 0.249 z-score
CGGCCTCTAGGTTTTCTGAAGTGCTAG: -0.41 z-score
TTATGTTCCGGTTTCGGTTAGTGCTAG: 9.67 z-score
TCAATTCTCACTGCAGCACTGTGCTAG: 0.514 z-score
TTAGGTCTCCTTTTCCTTGAGTGCTAG: 1.72 z-score
TTAGATATCAGGCTGGATTAGTGCTAG: -0.286 z-score
GTTGTTTTAAATTCTAATTAGTGCTAG: 0.798 z-score
TCACTTAGGTTTTCTGGTACTGTGCTA: 0.134 z-score
GACGGTCTCGCTATCGGGACGTGCTAG: 0.601 z-score
TTAGGTATCGGTCTCGTTTAGTGCTAG: 2.79 z-score
TTAGGTCTCGGTATCGGATAGTGCTAG: 2.74 z-score
GACGGACTACTTATCCTGACGTGCTAG: -0.248 z-score
TTAGGTATCGGATATCGGTTAGTGCTA: 0.489 z-score
TCACCTCTAACTTCCCAACTGTGCTAG: 0.63 z-score
TTAGATTTCGGGACTTGATTAGTGCTA: 0.51 z-score
GACGATCTCAGTATCGGGACGTGCTAG: -0.0861 z-score
GACGATCTCAGTCTCCAGACGTGCTAG: -0.248 z-score
TCTGATTTTGCTTTCATTTAGTGCTAG: 0.84 z-score
GACGACATCGGGTATCGAGACGTGCTA: -0.261 z-score
TCATATATGTGTATATAACTGTGCTAG: 0.751 z-score

Block 6 — target: CREBL2, bZIP domain (human); technique: DHFR protein complementation; matrix: yeast; baseline: wild-type JUN-FOS pair; direction: higher = stronger binding; measurement: binding fitness
Notes: single substitutions, most at no-binding floor
Parent: JUN, bZIP domain (human); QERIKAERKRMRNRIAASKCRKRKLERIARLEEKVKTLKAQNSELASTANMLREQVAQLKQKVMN; partner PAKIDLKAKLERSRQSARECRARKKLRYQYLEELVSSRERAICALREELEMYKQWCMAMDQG
T48R: -1.4 natural log
I28V: -1.21 natural log
E33A: -1.41 natural log
E44Q: -1.58 natural log
A57T: -1.57 natural log
A40E: -1.35 natural log
T37G: -1.49 natural log
A46G: -1.37 natural log
A46P: -1.47 natural log
K36E: -1.25 natural log
A40R: -1.49 natural log
A49D: -1.66 natural log
L31G: -1.51 natural log
L59A: -1.56 natural log
A57N: -1.52 natural log
L52N: -1.43 natural log
E33W: -1.3 natural log

Single results of other studies
PhoQ, residues 284 288 289 292 302 303 SSCCRF
fold induction (PhoP, residues 12 14 15 18 19 GQAIL (Escherichia coli, UniProt P23836); Sort-seq, item: YFP reporter; E. coli; PhoQ-PhoP variant library, added: 10 µM Mg2+; baseline: high Mg2+ state, higher = stronger signaling): 20.9

For quick reference, copied from above (block 6):
E33A: -1.41 natural log
E44Q: -1.58 natural log
A57T: -1.57 natural log
A40E: -1.35 natural log
T37G: -1.49 natural log
A46G: -1.37 natural log
A46P: -1.47 natural log
K36E: -1.25 natural log
A40R: -1.49 natural log
A49D: -1.66 natural log
